Measured values pooled from the literature.
Compare with care: the assays were run in different laboratories. ± marks the error that the study gave.
OPRK1: Kappa-type opioid receptor (OPRK1, Homo sapiens, UniProt P41145)

Amino acid sequences for entries named in this document (tags omitted).
UniProt P35916, whole entry, looked up: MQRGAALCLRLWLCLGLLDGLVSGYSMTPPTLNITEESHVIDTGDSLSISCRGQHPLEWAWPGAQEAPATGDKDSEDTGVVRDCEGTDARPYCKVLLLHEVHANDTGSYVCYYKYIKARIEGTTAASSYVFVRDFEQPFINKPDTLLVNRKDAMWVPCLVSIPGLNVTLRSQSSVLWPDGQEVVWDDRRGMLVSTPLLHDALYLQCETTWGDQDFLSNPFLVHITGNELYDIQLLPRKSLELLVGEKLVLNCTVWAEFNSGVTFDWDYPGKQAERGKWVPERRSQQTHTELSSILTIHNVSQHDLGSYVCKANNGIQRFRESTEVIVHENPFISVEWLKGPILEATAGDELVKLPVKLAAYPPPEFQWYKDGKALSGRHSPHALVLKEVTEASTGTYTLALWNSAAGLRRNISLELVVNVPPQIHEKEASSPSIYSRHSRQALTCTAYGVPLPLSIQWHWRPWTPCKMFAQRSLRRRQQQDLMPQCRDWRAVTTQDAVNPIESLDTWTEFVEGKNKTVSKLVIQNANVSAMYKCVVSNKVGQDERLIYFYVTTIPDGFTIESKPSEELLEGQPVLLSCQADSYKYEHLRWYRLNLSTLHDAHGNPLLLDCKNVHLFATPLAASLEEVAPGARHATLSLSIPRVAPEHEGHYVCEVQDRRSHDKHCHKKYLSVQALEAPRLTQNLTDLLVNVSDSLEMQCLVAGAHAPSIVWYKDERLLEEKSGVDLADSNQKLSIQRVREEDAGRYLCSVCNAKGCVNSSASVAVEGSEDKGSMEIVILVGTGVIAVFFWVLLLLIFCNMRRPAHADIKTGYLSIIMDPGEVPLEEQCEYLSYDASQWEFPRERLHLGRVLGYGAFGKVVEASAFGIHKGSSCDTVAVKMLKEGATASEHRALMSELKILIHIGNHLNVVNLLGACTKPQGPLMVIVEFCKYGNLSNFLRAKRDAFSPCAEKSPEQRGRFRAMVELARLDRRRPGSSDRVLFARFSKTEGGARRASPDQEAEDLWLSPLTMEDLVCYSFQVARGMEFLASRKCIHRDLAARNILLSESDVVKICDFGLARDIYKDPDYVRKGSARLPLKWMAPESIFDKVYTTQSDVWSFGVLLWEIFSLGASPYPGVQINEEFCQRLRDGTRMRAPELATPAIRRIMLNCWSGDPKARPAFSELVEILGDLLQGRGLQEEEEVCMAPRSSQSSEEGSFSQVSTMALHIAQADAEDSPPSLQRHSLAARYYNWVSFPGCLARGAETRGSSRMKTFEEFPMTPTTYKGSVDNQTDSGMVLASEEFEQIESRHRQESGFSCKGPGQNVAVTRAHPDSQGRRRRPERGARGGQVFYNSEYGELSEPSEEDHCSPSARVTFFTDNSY

CCCN1CCN(c2ccc3c(c2)C2CC3CCN2C(=O)OCc2ccccc2)CC1 (stereo not shown) — Ki (OPRK1; binding, radioligand binding): 8520 nM
CO[C@]12CC[C@@]3(C[C@@H]1[C@](C)(O)c1ccccc1)[C@H]1Cc4ccc(O)c5c4[C@@]3(CCN1CC1CC1)[C@H]2O5 — Ki (OPRK1; binding, radioligand displacement; CHO; together with: [3H]U-69593): 0.49 ± 0.08 nM
COC(=O)[C@@H]1C[C@H](OC(=O)CSC#N)C(=O)[C@H]2[C@@]1(C)CC[C@H]1C(=O)O[C@H](c3ccoc3)C[C@]21C — Ki (OPRK1; radioligand competition; together with: [3H]diprenorphine): 39 ± 11 nM
CCN1CCN(Cc2ccc(NC(=O)c3ccc(C)c(/C=C/c4cnc5[nH]ccc5c4OC)c3)cc2C(F)(F)F)CC1 — log2 fold change (TSSK2 (Homo sapiens, UniProt Q96PF2); inhibitor, cell-based kinome screen; 5 µM; baseline: vehicle): 0.968
CC[C@](O)([C@H]1C[C@@]23C=C[C@]1(OC)[C@@H]1Oc4c(O)ccc5c4[C@@]12CCN(CC1CC1)[C@@H]3C5)C(C)(C)C — Ki (OPRK1; binding, radioligand displacement; CHO; together with: [3H]U-69593): 0.75 ± 0.11 nM
O=C1CC2CC(c3cccc(O)c3)(CCN2CCc2ccccc2)C1 (stereo not shown) — Ki (OPRK1; radioligand binding; CHO expressing OPRK1; together with: [3H]U-69593): 198 ± 19 nM
CO[C@]12CC[C@@]3(C[C@@H]1[C@@](C)(O)C(C)(C)C)[C@H]1Cc4c(Cl)cc(O)c5c4[C@@]3(CCN1CC1CC1)[C@H]2O5 — Ki (OPRK1; radioligand binding; CHO; together with: [3H]U69593): 45.6 ± 3.4 nM
N=C(N)NCC(=O)NCC1(Cc2cccc3ccccc23)CCN(Cc2ccccc2)CC1 — Ki (OPRK1; binding; HEK293 membranes; together with: [3H]U-69,593): 362 ± 30 nM
COCO[C@H]1C[C@@H](C(=O)OC)[C@]2(C)CC[C@H]3C(=O)O[C@H](c4ccoc4)C[C@]3(C)[C@H]2C1=O — Ki (OPRK1; radioligand binding; CHO expressing OPRK1; together with: [3H]U-69593): 1.9 ± 0.2 nM
CN1CC[C@]2(c3cccc(O)c3)C[C@H]3CCCC[C@@H]3[C@H]1C2 (relative stereo) — Ki (OPRK1; radioligand binding; CHO expressing OPRK1; together with: [3H]U-69593): 22 ± 0.87 nM
CC[C@](O)([C@H]1C[C@@]23CC[C@]1(OC)[C@@H]1Oc4c(O)ccc5c4[C@@]12CCN(CC1CC1)[C@@H]3C5)C(C)(C)C — Ki (OPRK1; binding, radioligand displacement; CHO; together with: [3H]U-69593): 0.56 ± 0.01 nM
CO[C@]12CC[C@@]3(C[C@@H]1[C@](C)(O)CC(C)(C)c1ccccc1)[C@H]1Cc4ccc(O)c5c4[C@@]3(CCN1CC1CC1)[C@H]2O5 — Ki (OPRK1; radioligand binding; CHO; together with: [3H]U69593): 4.15 ± 1.3 nM
N=C(N)NCC(=O)NCC1(Cc2ccccc2)CCN(Cc2ccccc2)CC1 — Ki (OPRK1; binding; HEK293 membranes; together with: [3H]U-69,593): 224 ± 20 nM
CO[C@]12CC[C@@]3(C[C@@H]1[C@H](O)c1ccccc1)[C@H]1Cc4ccc(O)c5c4[C@@]3(CCN1CC1CC1)[C@H]2O5 — Ki (OPRK1; binding, radioligand displacement; CHO; together with: [3H]U-69593): 4.4 ± 1.6 nM
CO[C@]12CC[C@@]3(C[C@@H]1[C@@](C)(O)C(C)(C)C)[C@H]1Cc4c(Br)cc(O)c5c4[C@@]3(CCN1CC1CC1)[C@H]2O5 — Ki (OPRK1; radioligand binding; CHO; together with: [3H]U69593): 9.93 ± 3.7 nM
CC#C/C(=N\OC[C@H]1COCCN1)c1ccc2ncnc(Nc3ccc(OCc4cccc(F)c4)c(Cl)c3)c2c1 — inhibition (FLT4 (Homo sapiens, UniProt P35916); kinase activity; 10 µM): 22.8%

For quick reference, copied from above:
CC[C@](O)([C@H]1C[C@@]23C=C[C@]1(OC)[C@@H]1Oc4c(O)ccc5c4[C@@]12CCN(CC1CC1)[C@@H]3C5)C(C)(C)C — Ki (OPRK1; binding, radioligand displacement; CHO; together with: [3H]U-69593): 0.75 ± 0.11 nM
O=C1CC2CC(c3cccc(O)c3)(CCN2CCc2ccccc2)C1 (stereo not shown) — Ki (OPRK1; radioligand binding; CHO expressing OPRK1; together with: [3H]U-69593): 198 ± 19 nM
